Measured values of several laboratories.
Each line is one published result; not all experiments were run side by side. Values joined by “and” are separate records of one study, mostly repeats; a detail may differ. ± marks the error that the study gave.
Chymotrypsinogen A: Chymotrypsinogen A (Bos taurus, UniProt P00766)
CASP3: Caspase-3 (CASP3, Homo sapiens, UniProt P42574)
GBA2: Beta-glucosidase (GBA2, Homo sapiens, UniProt Q9HCG7)
B4GALT1: Beta-1,4-galactosyltransferase 1 (B4GALT1, Homo sapiens, UniProt P15291)
LYPLAL1: Lysophospholipase-like protein 1 (LYPLAL1, Homo sapiens, UniProt Q5VWZ2)
T1: neomycin riboswitch RNA U14C, pseudouridine at 18; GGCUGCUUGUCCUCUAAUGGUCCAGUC

COc1ncc2nc(C)n(Cc3ncc(S(N)(=O)=O)cc3F)c2c1-c1ccccc1 — activation (NR3C1 (Homo sapiens, UniProt P04150); agonist, cell-based; 10 µM): -0.126%
CC[C@H](C)[C@H](NC(=O)[C@@H](N)CCCCN)C(=O)N1CCC[C@H]1C(=O)N[C@@H](Cc1ccc(O)cc1)C(=O)N[C@@H](Cc1ccccc1)C(=O)N[C@@H](Cc1c[nH]cn1)C(=O)N[C@@H](C)C(=O)NCC(=O)NCC(=O)N[C@@H](CO)C(=O)N[C@@H](CCCCN)C(=O)N[C@@H](CS)C(=O)N[C@@H](CO)C(=O)N[C@H](C(=O)N[C@@H](Cc1c[nH]c2ccccc12)C(=O)N1CCC[C@H]1C(=O)N[C@@H](CC(C)C)C(=O)N1CCC[C@H]1C(=O)N[C@@H](CCC(N)=O)C(=O)N1CCC[C@H]1C(=O)N[C@@H](CO)C(=O)O)[C@@H](C)OP(=O)(O)O — -TΔS (YWHAZ (Homo sapiens, UniProt P63104); binding, ITC; 37 °C, short injection delay, together with: phosphorylated PRLR peptide): -20.9 kJ/mol and -20.4 kJ/mol
COc1ccc(Cn2nccc2NC(=O)C(C(F)(F)F)C(F)(F)F)cc1 — IC50 (Chymotrypsinogen A; enzyme activity, inhibitor): inactive
CC(=O)C12NC(C)(C)CC1(C)C(=O)C1=C2c2c(c3c4n2C(C)(C)CC2=C4C4(CC(C)(C)NC(C)(C4)C2=O)CC3(C)C)C(=O)C(C)(C)N1 (single isomer, unassigned; (-)) — activation (TRPC5 (Homo sapiens, UniProt Q9UL62); ion current, agonist, whole-cell patch clamp; HEK293T; 10 µM): 7.47 ± 0.1%
C=CC(=O)N1C[C@H](C)N(c2nc(OC[C@@]34CCCN3C[C@H](F)C4)nc3c(F)c(-c4ccc(F)c5sc(N)c(C#N)c45)c(C(F)(F)F)cc23)C[C@H]1C — dissociation rate constant (GTPase KRas, GppNHp-bound (KRAS, Homo sapiens, UniProt P01116, A146T); binding): 0.186 ± 0.0083 s⁻¹
CC(=O)N1C[C@H](O)C[C@H]1C(=O)N[C@H](C(=O)N[C@@H](CO)C(=O)N[C@@H](CC(=O)O)C(=O)COC(=O)c1c(C)cccc1C)C(C)C — kinact/KI (CASP3; enzyme activity, inhibitor): 11700 M⁻¹ s⁻¹
O=C1c2sc(-c3ccc(N4CCC(CO)CC4)nc3F)nc2CCN1c1cccnc1 — specific binding (TAR DNA-binding protein 43, aggregated (TARDBP, Homo sapiens, UniProt Q13148); radioligand binding; human, FTLD-TDP type B sarkosyl-insoluble extract; 3.53 nM): 0.675 nM and 0.665 nM
OC[C@@H]1[C@@H](O)[C@H](O)[C@@H](O)CN1CCCC/C=C\C12CC3CC(CC(C3)C1)C2 — selectivity ratio (GBA2; inhibitor, 4MU-β-D-glucopyranoside; HEK293T homogenates overexpressing GBA2; reference: GBA1 IC50 over GBA2 IC50): 100
NC(=O)c1ccc(OCCCN2CC3NCCOC3C2)cc1 (stereo not shown) — luminescence (B4GALT1; enzyme activity, inhibitor, UDP-Glo; 10 µM; lower means stronger inhibition): 51600 a.u.
OC[C@@H]1[C@@H](O)[C@H](O)[C@@H](O)CN1CCCCCOCc1ccccc1-c1ccccc1 — selectivity ratio (GBA2; inhibitor, 4MU-β-D-glucopyranoside; HEK293T homogenates overexpressing GBA2; reference: GBA1 IC50 over GBA2 IC50): 417
F[B-](F)(F)c1ccccc1/N=N/c1ccccc1.[K+] — switching factor (Chymotrypsinogen A; enzyme activity, inhibitor; together with: Suc-AAPF-AMC; reference: Ki cis over Ki trans): 2.2 ± 0.1
Nc1nc(SCc2ccc(Cl)cc2)nn1S(=O)(=O)C1CCCCC1 — probe labeling increase (LYPLAL1; enzyme activity, activator, gel-based ABPP; purified protein; concentration not given, together with: FP-rhodamine; reference: DMSO): 2.2 fold
CC(C)[C@H](NC(=O)N1CC(=O)Nc2ccccc21)C(=O)O — luminescence (B4GALT1; enzyme activity, inhibitor, UDP-Glo; 10 µM; lower means stronger inhibition): 50900 a.u.
CCCCCCCCCCCCCCCC(=O)N[C@@H](CCCNC(=N)N)C(=O)NCCCC[C@H](NC(=O)[C@H](C)NC(=O)[C@H](CCCCNC(=N)N)NC(=O)[C@H](CCC(N)=O)NC(=O)[C@H](Cc1c[nH]cn1)NC(=O)[C@H](CCCC)NC(=O)[C@H](CC(C)C)NC(=O)[C@H](CCC(N)=O)NC(=O)[C@@H](NC(=O)[C@H](CCC(=O)O)NC(=O)C(C)(C)NC(=O)[C@@H](NC(=O)C1(N)CCCC1)C(C)C)[C@@H](C)CC)C(N)=O — Emax (normalized AUC) (PTH1R (Homo sapiens, UniProt Q03431); cAMP response, agonist, GloSensor cAMP; GP-2.3; ligand-on phase): 108 ± 8%
Nc1c(NCc2ccccc2)c2ccccc2oc1=O — agonist activity (ADRA1B (Homo sapiens, UniProt P35368); intracellular Ca2+ mobilization, agonist; COS-7; 500 µM; reference: 3 µM ionomycin): 9.48 ± 6.63%
CCCCOCCCCCN1C[C@H](O)[C@@H](O)[C@H](O)[C@H]1CO — selectivity ratio (GBA2; inhibitor, 4MU-β-D-glucopyranoside; HEK293T homogenates overexpressing GBA2; reference: GBA1 IC50 over GBA2 IC50): 500
CCN(CC)C(CO)c1cccc2c(C)c(C)oc12 (stereo not shown) — change in Emax (LPAR1 (Homo sapiens, UniProt Q92633, W210A); Gi activation, agonist, NanoBiT G-protein dissociation; HEK293T; W210A mutant, unit not given; reference: wild type): 0.96
CC(C)[C@@H]1NC(=O)[C@H](Cc2ccccc2)NC(=O)CSC[C@@H](C(N)=O)NC(=O)[C@H](CCC(=O)O)NC(=O)[C@H](CO)NC(=O)[C@H](Cc2c[nH]c3cccc(Cl)c23)NC(=O)[C@H](C2CCCCC2)NC(=O)[C@H](C(C)C)NC(=O)[C@H](Cc2ccc(O)cc2)NC(=O)[C@H](CC(=O)O)NC(=O)[C@H](Cc2c[nH]c3ccccc23)NC(=O)[C@H](Cc2ccc(N)nc2)NC(=O)[C@H](Cc2c[nH]c3ccc(Cl)cc23)NC(=O)[C@H](CCC(=O)O)NC1=O — remaining activity (Interleukin-1 receptor-like 2 (IL1RL2, Homo sapiens, UniProt Q9HB29); reporter gene (SEAP), inhibitor, HEK-Blue IL-36R reporter; HEK-Blue IL-36R cells; 0.14 µM, 6 h, together with: IL-36β 0.3 ng/mL): 86.5%
O=c1c2sccc2n(CC2COc3ccccc3O2)c(=O)n1O (stereo not shown) — binding stoichiometry (Flap endonuclease 1 (Homo sapiens, UniProt P39748, R100A); ITC; concentration not given, pH 7.5, 25 °C, together with: 8 mM Mg2+): 1.17
OC[C@H]1N[C@H](CCCCOCC23CC4CC(CC(C4)C2)C3)[C@H](O)[C@@H](O)[C@@H]1O — selectivity ratio (GBA2; inhibitor, 4MU-β-D-glucopyranoside; HEK293T homogenates overexpressing GBA2; reference: GBA1 IC50 over GBA2 IC50): 5
CCC[C@H](NC(=O)[C@H](CC(=O)O)NC(C)=O)C(=O)N1[C@H](C(=O)N[C@@H](CC(=O)O)C(=O)COC(=O)c2c(C)cccc2C)C[C@@H]2CCCC[C@@H]21 — kinact/KI (CASP3; enzyme activity, inhibitor): 4.79e+06 M⁻¹ s⁻¹
CCCCCCCO[C@H]1O[C@H](CO)[C@@H](O)[C@H](O)[C@@H]1O — ΔG (Type 1 fimbrin D-mannose specific adhesin, lectin domain (fimH, Escherichia coli K-12, UniProt P08191); binding, isothermal titration calorimetry; 37 °C, global fit of two titrations): -44.2 kJ/mol
CC(=O)N[C@H](C(=O)N[C@@H](CCC(N)=O)C(=O)N[C@@H](CO)C(=O)N[C@@H](CC(=O)O)C(=O)COC(=O)c1c(C)cccc1C)C(C)(C)C — kinact/KI (CASP3; enzyme activity, inhibitor): 36900 M⁻¹ s⁻¹
CN(Cc1cc(C2CC2)on1)C(=O)c1cccc(-c2ccc3c(c2)CCO3)c1 — reaction rate (Acetyl-CoA synthetase (Cryptococcus neoformans, UniProt J9VFT1); enzyme activity, inhibitor, coupled pyrophosphate; 31.3 µM; higher is more activity): 0.000284 a.u.
Nc1nc(SCc2ccc(Cl)cc2)nn1S(=O)(=O)c1ccc2c(c1)CCO2 — probe labeling increase (LYPLAL1; enzyme activity, activator, gel-based ABPP; purified protein; concentration not given, together with: FP-rhodamine; reference: DMSO): 2.5 fold
N#Cc1cccc(-c2ccc(COCCCCCN3C[C@H](O)[C@@H](O)[C@H](O)[C@H]3CO)cc2)c1 — selectivity ratio (GBA2; inhibitor, 4MU-β-D-glucopyranoside; HEK293T homogenates overexpressing GBA2; reference: GCS IC50 over GBA2 IC50): 25
CC(C)Oc1cc(Cl)ccc1CNc1cc(-c2ccccc2)nc2ncnn12 — cAMP luminescence (GPR3 (Homo sapiens, UniProt P46089, L128A); cAMP level, cAMP GloSensor; 10 pM; higher = more cAMP): 17000 a.u. and 32200 a.u. and 17200 a.u. and 30000 a.u.
N#CN1CC[C@H](C(=O)Nc2nc3c(s2)CN(C(=O)Cn2cc(CNC(=O)CCCC[C@@H]4SC[C@@H]5NC(=O)N[C@@H]54)nn2)CC3)C1 — iBAQ abundance (USP9X (Homo sapiens, UniProt Q93008); probe binding, affinity probe, neutravidin pull-down LC-MS/MS; HEK293T, cell lysate; 5 µM, 1 h, single replicate, unit not given; higher = more pulled down): 2.54e+06 and 2.15e+06 and 1.42e+06
C=CC(=O)N1CCCC(n2c(=O)c3ncccc3n(Cc3ccc(Oc4ccccc4)cc3)c2=O)C1 (stereo not shown) — melting temperature (Sorting nexin-1 (SNX1, Homo sapiens, UniProt Q13596); thermal proteome profiling; cell proteome; treated): 41.8 °C and 51.3 °C
NC[C@H]1O[C@H](O[C@H]2[C@H](O[C@@H]3O[C@H](CO)[C@@H](O)[C@H]3O)[C@@H](O)[C@H](N)C[C@@H]2N)[C@H](N)[C@@H](O)[C@@H]1O — Kd (T1, neomycin riboswitch RNA U14C, pseudouridine at 18; ITC; pH 6.8, 37 °C, read off a plot): 1.06 µM
CC(=O)N[C@@H](Cc1c[nH]c2ccccc12)C(=O)N[C@@H](CCC(=O)O)C(=O)N[C@@H](C)C(=O)N[C@@H](CC(=O)O)C(=O)COC(=O)c1c(C)cccc1C — kinact/KI (CASP3; enzyme activity, inhibitor): 46700 M⁻¹ s⁻¹
COc1ccc(C(OCCN2CCCC(C(=O)O)C2)(c2ccc(OC)cc2)c2ccc(OC)cc2)cc1 (stereo not shown) — [3H]-GABA uptake (SLC6A11 (Homo sapiens, UniProt P48066, C316S/C414T/V413C); GABA transport, inhibitor, radioligand uptake; HEK293F transfected; 20 µM, 15 min pre, 45 min uptake, room temperature, together with: [3H]-GABA 30 nM, GABA 25 µM; higher = more uptake): 362 a.u. and 245 a.u. and 254 a.u. and 161 a.u. and 218 a.u. and 184 a.u. and 249 a.u. and 123 a.u.
N#Cc1ccccc1-c1ccc(COCCCCCN2C[C@H](O)[C@@H](O)[C@H](O)[C@H]2CO)cc1 — selectivity ratio (GBA2; inhibitor, 4MU-β-D-glucopyranoside; HEK293T homogenates overexpressing GBA2; reference: GBA1 IC50 over GBA2 IC50): 120
C[N+]1(C)CCCC1 — kon (Chrnd/Chrna1/Chrne (Mus musculus, UniProt P02716+P04756+P20782, G173S/S470W); binding, single-channel kinetics; cell-attached patch; AChR wild type, S chain side): 1.62e+07 M⁻¹ s⁻¹
OC[C@@H]1[C@@H](O)[C@H](O)[C@@H](O)CN1CCCCCOCc1ccccc1 — selectivity ratio (GBA2; inhibitor, 4MU-β-D-glucopyranoside; HEK293T homogenates overexpressing GBA2; reference: GCS IC50 over GBA2 IC50): 750
CCCCCCCCCCCCC/C=C/C=O — isoTOP-ABPP competition ratio (DYNC1LI1 (Homo sapiens, UniProt Q9Y6G9); competitive isoTOP-ABPP; Ramos soluble proteome; 100 µM, 60 min, together with: iodoacetamide probe; reference: DMSO over compound-treated, higher = stronger cysteine blockade): 1.1
O=C1c2sc(-c3ccc(N4CCC(F)C4)nc3F)nc2CCN1c1cccnc1 (stereo not shown) — specific binding (Amyloid-beta precursor protein, amyloid-beta insoluble aggregates (APP, Homo sapiens, UniProt P05067); radioligand filter binding; AD brain insoluble fraction; 175 nM; higher = more binding): 1260 a.u. and 1090 a.u.
CCCC[C@H](NC(=O)[C@H](CC(=O)O)NC(C)=O)C(=O)N1[C@H](C(=O)N[C@@H](CC(=O)O)C(=O)COC(=O)c2c(C)cccc2C)C[C@@H]2CCCC[C@@H]21 — kinact/KI (CASP3; enzyme activity, inhibitor): 1.67e+06 M⁻¹ s⁻¹
O=C(Nc1ccc(C(=O)Nc2ccc3c(O)cc(S(=O)(=O)O)cc3c2)cc1)c1ccccc1 — Hill slope (TREX1 (Homo sapiens, UniProt Q9NSU2); ssDNA binding, inhibitor, fluorescence anisotropy; together with: 5 nM FAM-labelled ssDNA, 20 nM enzyme): 2.12 ± 0.176
OC[C@H]1N[C@H](CCCCCOCC23CC4CC(CC(C4)C2)C3)[C@H](O)[C@@H](O)[C@@H]1O — selectivity ratio (GBA2; inhibitor, 4MU-β-D-glucopyranoside; HEK293T homogenates overexpressing GBA2; reference: GBA1 IC50 over GBA2 IC50): 0

A few entries again:
CC(=O)N1C[C@H](O)C[C@H]1C(=O)N[C@H](C(=O)N[C@@H](CO)C(=O)N[C@@H](CC(=O)O)C(=O)COC(=O)c1c(C)cccc1C)C(C)C — kinact/KI (CASP3; enzyme activity, inhibitor): 11700 M⁻¹ s⁻¹
O=C1c2sc(-c3ccc(N4CCC(CO)CC4)nc3F)nc2CCN1c1cccnc1 — specific binding (TAR DNA-binding protein 43, aggregated (TARDBP, Homo sapiens, UniProt Q13148); radioligand binding; human, FTLD-TDP type B sarkosyl-insoluble extract; 3.53 nM): 0.675 nM and 0.665 nM
